Measured values gathered from unrelated publications.
Numbered parts are unrelated; each lists some results of a single study.
Sequence of UniProt P10721 (whole entry, unmodified, looked up): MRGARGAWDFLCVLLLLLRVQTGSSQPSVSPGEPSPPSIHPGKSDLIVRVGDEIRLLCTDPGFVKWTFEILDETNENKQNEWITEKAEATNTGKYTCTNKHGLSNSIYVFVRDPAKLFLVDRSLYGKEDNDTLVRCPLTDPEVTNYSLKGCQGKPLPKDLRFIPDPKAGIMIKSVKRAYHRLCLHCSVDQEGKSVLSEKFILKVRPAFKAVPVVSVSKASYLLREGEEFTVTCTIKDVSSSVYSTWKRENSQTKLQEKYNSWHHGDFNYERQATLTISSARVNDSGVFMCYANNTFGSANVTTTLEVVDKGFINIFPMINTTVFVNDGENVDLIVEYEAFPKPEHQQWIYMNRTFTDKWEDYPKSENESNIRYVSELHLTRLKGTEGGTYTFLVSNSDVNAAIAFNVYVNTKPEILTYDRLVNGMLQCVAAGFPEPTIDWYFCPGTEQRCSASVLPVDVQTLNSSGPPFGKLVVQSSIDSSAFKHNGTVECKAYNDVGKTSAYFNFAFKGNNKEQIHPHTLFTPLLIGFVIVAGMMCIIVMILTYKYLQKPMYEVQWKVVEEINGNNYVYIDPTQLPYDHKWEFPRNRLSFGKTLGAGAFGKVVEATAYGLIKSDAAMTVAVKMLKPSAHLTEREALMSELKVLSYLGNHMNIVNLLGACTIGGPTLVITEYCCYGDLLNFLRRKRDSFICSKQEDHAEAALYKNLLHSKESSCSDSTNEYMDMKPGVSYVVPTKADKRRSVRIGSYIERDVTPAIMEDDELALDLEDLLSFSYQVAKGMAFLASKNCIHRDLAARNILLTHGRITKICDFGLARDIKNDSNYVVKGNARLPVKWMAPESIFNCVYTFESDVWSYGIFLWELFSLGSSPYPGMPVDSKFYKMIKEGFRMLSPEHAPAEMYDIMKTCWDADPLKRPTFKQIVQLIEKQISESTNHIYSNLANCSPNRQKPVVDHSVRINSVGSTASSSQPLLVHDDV

Study 1
Target: PAS domain-containing serine/threonine-protein kinase (PASK, Homo sapiens, UniProt Q96RG2)
Sequence of UniProt Q96RG2 (whole entry, looked up): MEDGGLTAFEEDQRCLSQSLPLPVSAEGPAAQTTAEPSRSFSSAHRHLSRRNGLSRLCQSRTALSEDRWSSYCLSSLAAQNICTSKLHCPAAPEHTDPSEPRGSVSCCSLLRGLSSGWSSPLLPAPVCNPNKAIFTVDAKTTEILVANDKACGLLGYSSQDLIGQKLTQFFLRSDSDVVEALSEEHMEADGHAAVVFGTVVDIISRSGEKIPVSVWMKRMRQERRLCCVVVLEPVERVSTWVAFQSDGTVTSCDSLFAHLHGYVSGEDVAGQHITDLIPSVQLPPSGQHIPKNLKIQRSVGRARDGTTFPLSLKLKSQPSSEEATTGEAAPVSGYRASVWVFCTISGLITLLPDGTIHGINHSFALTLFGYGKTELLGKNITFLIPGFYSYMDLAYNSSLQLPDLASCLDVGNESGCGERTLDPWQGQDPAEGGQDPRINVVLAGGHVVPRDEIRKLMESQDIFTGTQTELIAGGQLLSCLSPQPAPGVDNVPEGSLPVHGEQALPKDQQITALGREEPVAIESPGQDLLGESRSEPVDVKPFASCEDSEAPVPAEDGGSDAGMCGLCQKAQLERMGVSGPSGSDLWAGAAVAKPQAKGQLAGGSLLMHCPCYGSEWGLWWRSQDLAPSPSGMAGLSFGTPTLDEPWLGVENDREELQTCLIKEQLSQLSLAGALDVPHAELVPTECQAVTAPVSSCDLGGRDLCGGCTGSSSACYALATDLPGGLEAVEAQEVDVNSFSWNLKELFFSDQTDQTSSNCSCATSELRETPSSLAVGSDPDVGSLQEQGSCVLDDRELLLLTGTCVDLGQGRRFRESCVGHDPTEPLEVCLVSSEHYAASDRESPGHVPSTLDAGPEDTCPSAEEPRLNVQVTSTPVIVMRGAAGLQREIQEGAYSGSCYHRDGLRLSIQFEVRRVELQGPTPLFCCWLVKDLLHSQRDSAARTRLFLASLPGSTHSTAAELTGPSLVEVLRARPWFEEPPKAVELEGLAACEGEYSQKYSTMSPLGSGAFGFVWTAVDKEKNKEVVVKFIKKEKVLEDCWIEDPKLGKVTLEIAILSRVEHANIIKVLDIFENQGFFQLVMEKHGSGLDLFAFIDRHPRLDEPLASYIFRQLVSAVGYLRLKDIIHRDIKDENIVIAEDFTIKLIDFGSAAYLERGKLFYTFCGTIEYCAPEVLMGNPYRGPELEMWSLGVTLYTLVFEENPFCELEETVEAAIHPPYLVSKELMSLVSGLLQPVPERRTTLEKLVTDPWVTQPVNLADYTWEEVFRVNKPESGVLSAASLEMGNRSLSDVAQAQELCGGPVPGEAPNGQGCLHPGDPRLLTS
Read-out: enzyme activity
Mode: inhibitor
Concentration: 0.5 µM
Relative to: control
Measurement: remaining activity
O=C1c2ccccc2-c2nc3nnnn3nc21: 73.4%
FC(F)(F)c1ccc(/C=C/c2nc(COc3ccc(CCCCn4ccnn4)cc3)co2)cc1: 104%
CCN(CC)CCCCN1c2ccccc2Oc2ccc(Cl)cc21: 76.6%
NC(=O)c1ccc(-c2nc(-c3ccc4c(c3)OCCO4)c(-c3ccccn3)[nH]2)cc1: 92.6%
CC(C)(C)c1nc2c3cc[nH]c(=O)c3c3cc(F)ccc3c2[nH]1: 83.2%
COc1cc2c(Nc3ccc(Br)cc3F)ncnc2cc1OCC1CCN(C)CC1: 102%
CC(C)N(CCC(=O)c1ccc2ccccc2c1)Cc1ccccc1: 97.3%
O=C1NC(=O)/C(=C/c2ccc3c(c2)OC(F)(F)O3)S1: 78.2%
c1cc(-c2cnn3cc(-c4ccc(OCCN5CCCCC5)cc4)cnc23)ccn1: 86.3%
CC(C)n1cnc2c(Nc3cccc(Cl)c3)nc(NCCO)nc21: 92.7%
C[C@@H](N)[C@H]1CC[C@H](C(=O)Nc2ccncc2)CC1: 92.5%
O=c1c(-c2ccc(F)cc2)c(-c2ccncc2)[nH]n1-c1ccc(Cl)cc1: 93.6%
O=Nc1c(-c2c(O)[nH]c3ccccc23)[nH]c2ccccc12: 94.1%
N#C/C(=C(/N)SC1C=CC=CC1)c1cccc(C(O)c2ccncc2)c1 (stereo not shown): 99.5%
NC(=O)c1cccc(-c2cc(Nc3ccc(OC(F)(F)F)cc3)ncn2)c1: 100%
Clc1ccc(Nc2nnc(Cc3ccncc3)c3ccccc23)cc1: 101%
COc1cc2c(N3CCN(C(=O)Nc4ccc(OC(C)C)cc4)CC3)ncnc2cc1OCCCN1CCCCC1: 105%
O=C(O)/C=C/c1cc(Br)c(Br)c(Br)c1Br: 24.8%
O=C(c1ccccc1)c1ccc(N2CCOCC2)cc1O: 94.3%
N#CC(c1ccnc(NCCc2cccnc2)n1)c1nc2ccccc2s1 (stereo not shown): 64.1%
Nc1nc(Nc2ccc(S(N)(=O)=O)cc2)nn1C(=S)Nc1c(F)cccc1F: 91.8%
CNc1cc2c(Nc3cccc(Br)c3)ncnc2cn1: 86.9%
CCCCc1c(-c2ccc(O)cc2)[nH]c2nccnc12: 99.5%

Study 2
Structure (SMILES): Cc1nc(N2CC[C@@H](O)C2)ncc1-c1cc(C(F)(F)F)cc2[nH]ncc12
Technique: competition with immobilised ligand
Concentration: 1 µM
Measurement: remaining binding
MAP3K6 (Homo sapiens, UniProt O95382); binding: 68%
Tyrosine-protein kinase ABL1, phosphorylated (ABL1, Homo sapiens, UniProt P00519, H396P); binding: 61%
MAP4K4 (Homo sapiens, UniProt O95819); binding: 82%
KIT (Homo sapiens, UniProt P10721, D816V); cell-free assay: 100%
MATK (Homo sapiens, UniProt P42679); binding: 86%
CAMK2A (Homo sapiens, UniProt Q9UQM7); cell-free assay: 100%
KIT (Homo sapiens, UniProt P10721, T670I/V559D); cell-free assay: 68%
FGFR4 (Homo sapiens, UniProt P22455); cell-free assay: 90%
DDR1 (Homo sapiens, UniProt Q08345); cell-free assay: 100%
CILK1 (Homo sapiens, UniProt Q9UPZ9); binding: 100%
PIK3CA (Homo sapiens, UniProt P42336, H1047Y); cell-free assay: 99%
Ribosomal protein S6 kinase alpha-2, C-terminal kinase domain (RPS6KA2, Homo sapiens, UniProt Q15349); binding: 100%
STK39 (Homo sapiens, UniProt Q9UEW8); binding: 99%
EPHB1 (Homo sapiens, UniProt P54762); cell-free assay: 73%
TTK (Homo sapiens, UniProt P33981); binding: 100%
BUB1 (Homo sapiens, UniProt O43683); binding: 75%
MAPKAPK2 (Homo sapiens, UniProt P49137); binding: 95%
CDK5 (Homo sapiens, UniProt Q00535); binding: 99%
Ribosomal protein S6 kinase alpha-1, C-terminal kinase domain (RPS6KA1, Homo sapiens, UniProt Q15418); binding: 91%
TESK1 (Homo sapiens, UniProt Q15569); binding: 94%
MAP2K3 (Homo sapiens, UniProt P46734); binding: 90%
KIT (Homo sapiens, UniProt P10721); cell-free assay: 67%
EGFR (Homo sapiens, UniProt P00533, L861Q); cell-free assay: 100%
YES1 (Homo sapiens, UniProt P07947); cell-free assay: 90%
Ribosomal protein S6 kinase alpha-6, C-terminal kinase domain (RPS6KA6, Homo sapiens, UniProt Q9UK32); binding: 100%

Study 3
Target: DNA polymerase theta, ATPase domain (POLQ, Homo sapiens, UniProt O75417)
Sequence of UniProt O75417 (whole entry, unmodified, looked up): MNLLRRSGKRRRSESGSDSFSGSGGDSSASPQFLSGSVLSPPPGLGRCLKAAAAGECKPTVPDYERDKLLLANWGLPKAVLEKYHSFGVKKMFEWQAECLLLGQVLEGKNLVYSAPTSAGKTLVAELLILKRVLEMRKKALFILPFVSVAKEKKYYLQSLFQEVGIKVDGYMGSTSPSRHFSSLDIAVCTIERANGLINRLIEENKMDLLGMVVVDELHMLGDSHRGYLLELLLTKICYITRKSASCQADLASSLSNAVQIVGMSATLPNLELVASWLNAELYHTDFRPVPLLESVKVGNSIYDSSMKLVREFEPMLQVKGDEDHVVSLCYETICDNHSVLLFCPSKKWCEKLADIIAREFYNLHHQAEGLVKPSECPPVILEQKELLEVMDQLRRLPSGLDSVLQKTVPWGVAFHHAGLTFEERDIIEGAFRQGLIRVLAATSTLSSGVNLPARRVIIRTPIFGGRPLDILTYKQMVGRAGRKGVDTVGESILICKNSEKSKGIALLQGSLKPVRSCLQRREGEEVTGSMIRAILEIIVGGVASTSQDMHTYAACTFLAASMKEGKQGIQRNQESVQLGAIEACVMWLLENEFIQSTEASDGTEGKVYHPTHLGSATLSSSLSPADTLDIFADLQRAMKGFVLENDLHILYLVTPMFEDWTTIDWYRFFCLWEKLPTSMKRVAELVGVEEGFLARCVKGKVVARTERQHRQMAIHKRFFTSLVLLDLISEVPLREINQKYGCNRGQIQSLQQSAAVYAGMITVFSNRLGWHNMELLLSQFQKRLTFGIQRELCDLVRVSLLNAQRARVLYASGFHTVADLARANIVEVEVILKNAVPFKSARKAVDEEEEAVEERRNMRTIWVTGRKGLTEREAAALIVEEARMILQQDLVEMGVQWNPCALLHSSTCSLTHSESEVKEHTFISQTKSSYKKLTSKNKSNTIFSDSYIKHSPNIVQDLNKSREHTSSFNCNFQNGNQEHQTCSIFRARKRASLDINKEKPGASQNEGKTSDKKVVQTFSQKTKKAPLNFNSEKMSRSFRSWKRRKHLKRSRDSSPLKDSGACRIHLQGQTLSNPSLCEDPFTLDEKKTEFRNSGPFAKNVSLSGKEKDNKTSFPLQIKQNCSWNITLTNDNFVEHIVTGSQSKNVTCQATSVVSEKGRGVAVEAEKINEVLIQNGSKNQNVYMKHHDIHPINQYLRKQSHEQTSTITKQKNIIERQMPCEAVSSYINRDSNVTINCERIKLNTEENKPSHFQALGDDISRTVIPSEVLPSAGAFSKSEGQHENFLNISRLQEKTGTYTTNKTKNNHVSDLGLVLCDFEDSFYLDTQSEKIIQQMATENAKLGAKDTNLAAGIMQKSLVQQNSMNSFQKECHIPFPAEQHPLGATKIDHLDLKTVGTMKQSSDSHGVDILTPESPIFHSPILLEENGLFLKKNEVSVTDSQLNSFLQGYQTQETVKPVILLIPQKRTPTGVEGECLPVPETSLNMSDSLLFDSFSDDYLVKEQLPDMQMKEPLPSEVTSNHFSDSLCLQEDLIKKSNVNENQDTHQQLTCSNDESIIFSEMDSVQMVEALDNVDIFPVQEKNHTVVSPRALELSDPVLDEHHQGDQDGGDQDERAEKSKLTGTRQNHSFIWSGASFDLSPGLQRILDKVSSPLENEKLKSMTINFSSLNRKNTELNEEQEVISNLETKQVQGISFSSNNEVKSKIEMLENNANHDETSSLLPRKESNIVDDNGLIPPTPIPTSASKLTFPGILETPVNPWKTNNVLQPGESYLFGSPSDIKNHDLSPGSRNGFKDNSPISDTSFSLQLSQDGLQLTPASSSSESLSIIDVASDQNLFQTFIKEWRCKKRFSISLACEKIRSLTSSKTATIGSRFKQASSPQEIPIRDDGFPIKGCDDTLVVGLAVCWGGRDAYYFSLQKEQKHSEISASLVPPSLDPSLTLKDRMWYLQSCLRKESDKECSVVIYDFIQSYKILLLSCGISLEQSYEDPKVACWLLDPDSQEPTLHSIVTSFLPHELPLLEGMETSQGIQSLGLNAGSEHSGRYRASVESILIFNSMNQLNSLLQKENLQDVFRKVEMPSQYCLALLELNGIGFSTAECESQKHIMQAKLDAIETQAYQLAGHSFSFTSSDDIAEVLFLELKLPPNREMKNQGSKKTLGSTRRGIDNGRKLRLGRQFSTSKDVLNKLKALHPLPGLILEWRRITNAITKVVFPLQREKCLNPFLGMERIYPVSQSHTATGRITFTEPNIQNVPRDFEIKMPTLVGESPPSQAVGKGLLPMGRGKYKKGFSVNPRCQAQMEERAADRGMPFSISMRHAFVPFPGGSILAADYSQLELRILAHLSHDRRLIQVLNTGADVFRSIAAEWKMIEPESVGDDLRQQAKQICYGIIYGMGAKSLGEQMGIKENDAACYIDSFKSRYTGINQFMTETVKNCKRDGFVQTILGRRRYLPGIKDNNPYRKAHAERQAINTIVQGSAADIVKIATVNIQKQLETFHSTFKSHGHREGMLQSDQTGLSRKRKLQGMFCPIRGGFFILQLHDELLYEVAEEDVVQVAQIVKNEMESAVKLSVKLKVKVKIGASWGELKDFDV
Read-out: enzyme activity
Mode: inhibitor
Concentration: 77 µM
Relative to: untreated
Measurement: remaining activity
CC(C)CC(N)=O: 91.5%
CCc1cccc(CC)c1NC(=O)CN(CC(=O)O)CC(=O)O: 100%
O=C(Nc1ccccc1)OCC(CN1CCCCC1)OC(=O)Nc1ccccc1 (stereo not shown): 102%
CC(=O)Oc1cccc2c1C(=O)c1c(OC(C)=O)cc(C(=O)O)cc1C2=O: 60.6%
C[C@]12CCC(=O)C=C1[C@@H]1C[C@@H]1[C@H]1[C@@H]3[C@@H]4C[C@@H]4[C@@]4(CCC(=O)O4)[C@@]3(C)CC[C@@H]12: 98%
CO/N=C(\C(=O)N[C@@H]1C(=O)N2C(C(=O)OCOC(=O)C(C)(C)C)=C(/C=C\c3scnc3C)CS[C@H]12)c1csc(N)n1: 97.2%
COc1ccc(/C=C/c2nc(NCCCN(C)C)c3ccccc3n2)cc1: 89.8%
N=C(N)c1ccc(N)cc1: 99.9%
O=C(c1cc(Cc2n[nH]c(=O)c3ccccc23)ccc1F)N1CCN(C(=O)C2CC2)CC1: 102%
S=C(Nc1ccccc1)Nc1nccs1: 108%
CC(=O)N(CC(O)CN(C(C)=O)c1c(I)c(C(=O)NC[C@@H](O)CO)c(I)c(C(=O)NC[C@@H](O)CO)c1I)c1c(I)c(C(=O)NC[C@@H](O)CO)c(I)c(C(=O)NC[C@@H](O)CO)c1I: 102%
COc1c(O[C@@H]2O[C@H](CO)[C@@H](O)[C@H](O)[C@H]2O)cc2c(c1OC)-c1ccc(SC)c(=O)cc1[C@@H](NC(C)=O)CC2: 100%

Study 4
SMILES: Cc1ccc(NC(=O)c2ccnc(C(F)(F)F)c2)cc1-c1cc(OCCO)nc(N2CCOCC2)c1
Concentration: 1 µM
Measurement: remaining binding
ABL1 (Homo sapiens, UniProt P00519, M351T); competitive binding panel; relative to: vehicle: 100%
PRKCH (Homo sapiens, UniProt P24723); competitive binding panel; relative to: vehicle: 94%
IRAK4 (Homo sapiens, UniProt Q9NWZ3); competitive binding panel; relative to: vehicle: 100%
PLK2 (Homo sapiens, UniProt Q9NYY3); competitive binding panel; relative to: vehicle: 78%
STK25 (Homo sapiens, UniProt O00506); competitive binding panel, measured: YSK1; relative to: vehicle: 100%
CAMK1G (Homo sapiens, UniProt Q96NX5); competitive binding panel; relative to: vehicle: 100%
STK4 (Homo sapiens, UniProt Q13043); competitive binding panel, measured: MST1; relative to: vehicle: 100%
KIT (Homo sapiens, UniProt P10721, V559D/V654A); competitive binding panel; relative to: vehicle: 91%
CLK3 (Homo sapiens, UniProt P49761); competitive binding panel; relative to: vehicle: 100%
SIK2 (Homo sapiens, UniProt Q9H0K1); competitive binding panel; relative to: vehicle: 97%
ROCK2 (Homo sapiens, UniProt O75116); competitive binding panel; relative to: vehicle: 96%
STK17B (Homo sapiens, UniProt O94768); competitive binding panel, measured: DRAK2; relative to: vehicle: 100%
PRKAA1 (Homo sapiens, UniProt Q13131); competitive binding, scanMAX; AMPK-alpha1, 1000 nM: 85%

Some of these lines once more (study 1):
CC(C)(C)c1nc2c3cc[nH]c(=O)c3c3cc(F)ccc3c2[nH]1: 83.2%
O=C(c1ccccc1)c1ccc(N2CCOCC2)cc1O: 94.3%
O=C(O)/C=C/c1cc(Br)c(Br)c(Br)c1Br: 24.8%
O=Nc1c(-c2c(O)[nH]c3ccccc23)[nH]c2ccccc12: 94.1%
NC(=O)c1ccc(-c2nc(-c3ccc4c(c3)OCCO4)c(-c3ccccn3)[nH]2)cc1: 92.6%
FC(F)(F)c1ccc(/C=C/c2nc(COc3ccc(CCCCn4ccnn4)cc3)co2)cc1: 104%
